Published values pooled from the literature.
A part holds a random share of what one study measured. Positions count from the first letter of the parent shown.

Series 1
Target: UBE2C UBC core domain (UniProt O00762)
Method: yeast two-hybrid
Sample: yeast
Notes: mostly zero background
Reference: not given
Direction: higher = stronger interaction
Quantity: lacZ reporter activity
B1: SYTL4 RING domain (UniProt Q96C24); chain RGSQHYSDRTCARCQESLGRLSPKTNTCRGCNHLVCRDCRIQESNGTWRCKVCAKEIELKKAT
B2: RBCK1 RING domain (UniProt Q9BYM8); chain SLVLNTEPAECPVCYSVLAPGEAVVLRECLHTFCRECLQGTIRNSQEAEVSCPFIDNTYSCSGKLLEREIK
B3: DZIP3 RING domain (UniProt Q86Y13); chain PDEEEEEEEPCVICHENLSPENLSVLPCAHKFHAQCIRPWLMQQGTCPTCRLHVLLPEEFP
Construct (chain): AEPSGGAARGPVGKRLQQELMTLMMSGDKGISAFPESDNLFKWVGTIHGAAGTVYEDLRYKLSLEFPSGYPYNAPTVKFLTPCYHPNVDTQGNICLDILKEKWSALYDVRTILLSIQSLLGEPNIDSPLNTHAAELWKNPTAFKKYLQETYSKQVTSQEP
B1 (SYTL4 RING domain): 0
GSDDEEIPFKCFICRQSFQNPVVTKCRHYFCESCALQHFRTTPRCYVCDQQTNGVFNPA (RNF113A RING domain (UniProt O15541)): 0
KLRKLKEAMLCMVCCEEEINSTFCPCGHTVCCESCAAQLQSCPVCRSRVEHVQHVY (MYLIP RING domain (UniProt Q8WY64)): 0
B2 (RBCK1 RING domain): 0
B3 (DZIP3 RING domain): 0

Series 2
Target: Ras GTPase-activating protein-binding protein 1, C-terminal RGG region (G3BP1, Homo sapiens, UniProt Q13283)
Sequence of UniProt Q13283 (whole entry, looked up): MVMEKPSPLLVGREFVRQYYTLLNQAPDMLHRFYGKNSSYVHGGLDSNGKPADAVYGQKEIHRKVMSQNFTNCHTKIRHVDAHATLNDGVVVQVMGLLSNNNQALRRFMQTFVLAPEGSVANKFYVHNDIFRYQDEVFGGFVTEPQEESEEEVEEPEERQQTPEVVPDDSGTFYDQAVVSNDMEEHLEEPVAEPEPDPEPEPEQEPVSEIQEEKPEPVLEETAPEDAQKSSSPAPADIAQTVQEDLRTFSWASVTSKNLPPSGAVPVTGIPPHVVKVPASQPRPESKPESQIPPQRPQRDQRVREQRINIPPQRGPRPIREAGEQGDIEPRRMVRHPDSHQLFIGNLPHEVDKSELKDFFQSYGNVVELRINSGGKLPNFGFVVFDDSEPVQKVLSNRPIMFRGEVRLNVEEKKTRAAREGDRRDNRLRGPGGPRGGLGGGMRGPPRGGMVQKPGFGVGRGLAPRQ
Method: RNA Bind-n-Seq
Form: RNA
Sample: in vitro
Concentration: 1 µM
Notes: whole 134-nt RNA, ends assumed
Together with: 150 mM KCl
Reference: input library
Direction: higher = stronger binding
Quantity: log2 enrichment
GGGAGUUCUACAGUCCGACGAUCCCUGUGCUACACAUCGUAUGUACCGAAUCGGGGAAAAAGGGGUUUUUUUGGGGAAAGGGGAAAGUAUUAUGUUACGCCGUUCGGAUCUGCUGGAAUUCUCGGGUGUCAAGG: 0.537
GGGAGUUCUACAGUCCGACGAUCUGGGAGGUGGAUUUUGUUUAUUUUUUUAGCUCAUUUCCAGGGGUGGGAAUUUUUUUUUAAUAUGUGUCAUGAAUAAAGUUGAUUUUGAAAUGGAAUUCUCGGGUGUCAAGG: 3.49
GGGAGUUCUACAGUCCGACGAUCUGGGAGGUGGAUUUUAUUUAUUUUUUUAGCUCAUUUCCAGGGGUGGGAAUUUUUUUUUAAUAUGUGUCAUGAAUAAAGUUGUUUUUGAAAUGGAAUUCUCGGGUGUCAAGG: 2.78
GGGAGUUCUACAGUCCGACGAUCGCUGUGACCCCAACGCCGGUGCCCGUGGUCGGGAGCCAGAUGACCAGACAAGCCCGGCGCCUCUACGUGGGCAACAUCCCCUUUGGCAUCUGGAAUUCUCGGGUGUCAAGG: -0.932
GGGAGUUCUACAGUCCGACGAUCUCAAGUCCUGUGCUACACAUCGUAUGUACCGAAUCGGUUUGGUUUGGGGUUUGGAAAGUAUUAUGUUACGCCGUUCGGAUCUGCACUUCCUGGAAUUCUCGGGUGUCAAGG: -0.992

Series 3
Target: Interferon regulatory factor 3, full length, phosphomimetic (IRF3, Homo sapiens, UniProt Q14653, residues 1-427, S386D/S396D/S398D/S402D/T404D/S405D)
Method: protein-binding microarray
Form: double-stranded DNA, one strand shown
Sample: in vitro
Concentration: 2540 nM top
Notes: 60-bp whole probe
Together with: salmon DNA 0.4 mg/ml
Reference: random background probes
Direction: higher = stronger binding
Quantity: fitted relative affinity
Shared flanks, not repeated: GCCTAGCAC … GTCTTGATTCGCTTGACGCTGCTG
Target sequence (chain): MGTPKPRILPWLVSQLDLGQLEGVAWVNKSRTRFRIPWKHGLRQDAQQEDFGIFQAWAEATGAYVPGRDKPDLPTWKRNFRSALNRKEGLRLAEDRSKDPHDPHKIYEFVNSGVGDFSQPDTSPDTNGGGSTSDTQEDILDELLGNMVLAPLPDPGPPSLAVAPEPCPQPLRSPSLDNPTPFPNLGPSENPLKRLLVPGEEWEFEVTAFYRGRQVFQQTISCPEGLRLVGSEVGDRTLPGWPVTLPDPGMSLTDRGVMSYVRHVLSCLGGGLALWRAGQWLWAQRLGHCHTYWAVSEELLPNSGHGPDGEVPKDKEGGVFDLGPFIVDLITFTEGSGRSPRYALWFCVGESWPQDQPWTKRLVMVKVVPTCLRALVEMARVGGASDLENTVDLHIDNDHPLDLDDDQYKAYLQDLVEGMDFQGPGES
TTATGACTGGGGTTTCGGTTAGTGCTA: 2.5 z-score
AACGGTATCGACTATCGGGACGTGCTA: 0.616 z-score
TCATGCTTCGAGATCTCACTGTGCTAG: -0.362 z-score
CTAGTTTTACTTTCTATCTCGTGCTAG: 6.34 z-score
TTAGGCCTGGACACTGGGTTAGTGCTA: -1.21 z-score
TTAGATTTCGGGACTGGACTAGTGCTA: 1.34 z-score
TTAGGTATCCTTATCCTTTGGTGCTAG: 5.2 z-score
TTAGATTTCATTATCGATTAGTGCTAG: 2.54 z-score
CCCAGACTTGATTTTGGTCTGTGCTAG: -0.0476 z-score
GACGATTTCGGGAATGGAGACGTGCTA: 1.3 z-score

Series 4
Target: CCND1, cyclin fold, Cln2 fusion (human)
Method: yeast growth competition, sequencing
Sample: yeast
Notes: weak parent motif
Reference: not given
Direction: higher = stronger binding
Quantity: normalised enrichment score
Starting sequence: ORC1 docking peptide (human); PRARKRLELGNLG; partner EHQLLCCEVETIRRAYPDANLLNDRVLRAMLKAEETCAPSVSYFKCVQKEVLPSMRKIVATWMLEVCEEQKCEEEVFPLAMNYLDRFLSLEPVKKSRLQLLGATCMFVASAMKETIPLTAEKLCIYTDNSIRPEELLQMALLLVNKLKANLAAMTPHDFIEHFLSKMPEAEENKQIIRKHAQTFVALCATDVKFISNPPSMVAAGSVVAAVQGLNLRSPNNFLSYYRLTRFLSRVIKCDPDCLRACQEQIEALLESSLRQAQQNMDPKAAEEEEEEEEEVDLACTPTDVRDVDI
L7F: -0.684
G10M: 0.308
A3M: 1.29
N11R: 0.0666
R2K: 0.0273
N11A: -0.209
A3P: -0.0713
P1H: -0.171
R2N: 0.37
L9G: -0.15
R4M: 0.118
